Assay results collected from several papers.
Every numbered part comes from another study and shows a few of its results, in no order.

Sample 1
Target: Hepatocyte nuclear factor 3-beta, forkhead domain (FOXA2, Homo sapiens, UniProt Q9Y261, residues 142-269)
Technique: protein-binding microarray
Form: double-stranded DNA, one strand shown
Matrix: in vitro
Concentration: not given
Setting: k-mer, scored over probes, only values ≥0.25
Direction: higher = stronger binding
Target sequence (chain): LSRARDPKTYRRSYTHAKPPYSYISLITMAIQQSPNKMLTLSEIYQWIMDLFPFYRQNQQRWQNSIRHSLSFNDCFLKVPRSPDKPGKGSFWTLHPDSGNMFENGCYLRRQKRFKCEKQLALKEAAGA
| Sequence | E-score |
| --- | --- |
| ACATGTTA | 0.32 |
| ACATATTG | 0.258 |
| ACAATTAT | 0.307 |
| TATTAACA | 0.304 |
| ATGTGTTA | 0.392 |
| ATATGGAT | 0.314 |
| ATACAATA | 0.321 |
| ACACACAC | 0.363 |
| AGGGTATA | 0.287 |
| ACAACTAT | 0.305 |
| ATATTTGC | 0.369 |
| ATGTATAA | 0.311 |
| ACCAACAT | 0.3 |
| GACACACA | 0.325 |
| ATACAAAA | 0.325 |
| GTTTATGA | 0.254 |
| TAACTGTA | 0.307 |
| GACAAACA | 0.297 |
| AACAAATA | 0.419 |

Sample 2
Target: RING finger protein unkempt homolog, zinc fingers 1-6, SBP tag (UNK, Homo sapiens, UniProt Q9C0B0, residues 30-357)
UniProt Q9C0B0, sequence (30-357, looked up): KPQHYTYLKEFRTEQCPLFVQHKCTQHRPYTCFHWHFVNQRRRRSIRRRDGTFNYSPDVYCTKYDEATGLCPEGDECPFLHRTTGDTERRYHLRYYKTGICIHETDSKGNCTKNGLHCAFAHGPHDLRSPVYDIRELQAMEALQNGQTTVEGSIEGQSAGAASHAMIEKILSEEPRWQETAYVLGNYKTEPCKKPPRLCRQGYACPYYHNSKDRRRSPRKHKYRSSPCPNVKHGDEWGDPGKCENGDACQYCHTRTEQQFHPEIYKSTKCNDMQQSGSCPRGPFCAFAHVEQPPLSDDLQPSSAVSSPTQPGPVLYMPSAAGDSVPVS
Technique: RNA Bind-n-Seq
Form: RNA
Matrix: in vitro
Concentration: 100 nM
Setting: RNA with constant flanks, vertebrate orthologous sites, ends assumed
Relative to: input RNA pool
Direction: higher = stronger binding
| Sequence | bound/input enrichment |
| --- | --- |
| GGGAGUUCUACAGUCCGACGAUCGGAAAGCUACAGACCAGACUCUGAAAGCAGGAGCACGGGAUCCUGGUUGUCAUCAUCUUUGAGGAACAGAUGUACACCUCUCUUCUCCAGAAGAAGGAGAGAAGGAAGAGACGAGUCUGCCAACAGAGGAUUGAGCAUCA | 0.461 ratio |
| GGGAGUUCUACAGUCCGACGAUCUGUUUCUAAUUUCAAGCAAAAAAAAAAAAUCUUAUUGUACUUGAAUGUGUCCUGUUUUGUUAGCACACCUAGACUUGCUGUAACUGUACUCAUGUCCCAGUAUGUACGUUCUUUCUAUGACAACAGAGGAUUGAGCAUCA | 0.488 ratio |
| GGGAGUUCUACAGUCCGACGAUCAUUUAAAAUGUAGUUAGUUAUAUUUAAUGACCUCAUUCCUAAGUUCCUUUUUCAUUAAUGUAGCUUUCAUUUGUUAUUGCUGUUUGAAUAAUAUGAUUAAAUAGAAGGUUUGUGCCAGUACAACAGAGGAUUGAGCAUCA | 0.546 ratio |
| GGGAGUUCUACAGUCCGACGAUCAUAUUGUAUGUAGAGAAAAAUUUUCAUUGACCCCAUUGUGAAAUUCCCUAGCAAUUUAUUUAGAAUCUUAAUUUUUCUAAUUAAAGCUCACUGUAUUAGUCAUUUUUAGCAUAAUUAAAACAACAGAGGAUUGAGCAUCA | 1.81 ratio |
| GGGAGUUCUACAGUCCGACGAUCGUUGUGAUCCAUUUAAUAUACACAAAAAACUAGCUAAGAAAAAUUUGCAUGUAAUCGACUUAGAUGAUGCCACUUUCCUGAGUGCAAAAUUUGGAAGACAGCUUGUACCUGGUUGGAAGCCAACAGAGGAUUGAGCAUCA | 0.812 ratio |
| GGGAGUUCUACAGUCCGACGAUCAAUCACUAAUUGUAAUCUGAAUAAAGUGUAACAUUGUGUAGCCUUUUUUUUUGUAUAAAAUAGACAAAUAGAAAUGGUCCAAUUAGUUUCCUUUUUAAUAUGCUUAAAAGAAGCAGGUGGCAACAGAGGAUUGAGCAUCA | 0.951 ratio |
| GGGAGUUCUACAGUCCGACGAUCUUGGGACCAGCUCUCUGAAUAGAAAUAGUAGUAAAAAAACCAAGCAAAAUGAUAUUUGUAUAGAAAAAACAGAAGCUAAAUCAUGUAAAGUAAACGCUGCCAGUGUUCCAGGCCCUAAAGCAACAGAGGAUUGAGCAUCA | 1.76 ratio |
| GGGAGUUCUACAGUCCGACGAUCUUCAGGCACAACUGACUGGUUCGCAGCAUUCCUUACAUAGUUAUCUAUCAAAUGCAAGUGUAGUUAAUUUUCAGGAAACAACCAGACAGUCAUCUUUAUCCUGCAGCUCAGUUGGAGAUUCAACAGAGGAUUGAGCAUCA | 1.04 ratio |
| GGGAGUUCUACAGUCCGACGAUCGAUUUGGACCUUGGAGCUGAACCAGUGAGCUAGCAAAAGUAAAGCAGACUUGUAAAAUUAUAGCUAUAUGCAGCUGCACAACACAGUCCUACCACUAGCAGCUGUGUUAAAGUAUUUAUACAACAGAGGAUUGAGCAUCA | 0.884 ratio |
| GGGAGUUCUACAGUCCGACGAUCGUUGGGUCAUGACCCCUACAGGUUAGGCCAUGAUGCUUACAGGUUAGGACAAGACCCUUAUAGAUUAGGCCAUGAUCCCUACAGACUAACUCCGGAUCCCUAUAGGGUAUCACCUAGGCCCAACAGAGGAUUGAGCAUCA | 0.301 ratio |
| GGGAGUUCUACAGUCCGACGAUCCUCGGGGAUACCGUGGGGCGCUGCUGACUGCUUCGCGUUGUUUGAUUUGUGACCUUGACAUAAUAGAUAGGCUUGUGGUUUGUUUGUUUUUUUAAUUUAAAGAUAUUAAAACUUAAUUCACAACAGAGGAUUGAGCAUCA | 0.536 ratio |

Sample 3
Target: RNA binding protein fox-1 homolog 2, RRM domain, GST-SBP tag (RBFOX2, Homo sapiens, UniProt O43251-10, residues 100-194)
Technique: RNA Bind-n-Seq
Form: RNA
Matrix: in vitro
Concentration: 365 nM
Setting: natural RNA segment, single round, ends assumed
Relative to: no-protein control
Direction: higher = stronger binding
Target sequence (chain): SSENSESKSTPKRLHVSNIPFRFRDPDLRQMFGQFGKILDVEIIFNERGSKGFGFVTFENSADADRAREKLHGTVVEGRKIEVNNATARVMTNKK
| Sequence | RBNS enrichment (R) |
| --- | --- |
| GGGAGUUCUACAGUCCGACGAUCAUUGUACUUGAAACACCUCCUUUGCAUUUCUCCAUUUGUGCCAUUCACUAGUGGAAAUAAAUUGUAUUAUACCAUGAUCUACUGGCUUUUUAAAACUGUAUUAAAUAUGCUGGAAUUCUCGGGUGCCAA | 0.412 |
| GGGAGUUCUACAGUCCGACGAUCUUCUGAAUCAGUGGGGAAAUAUCAAUAUUUGAUCAAAUUAACACUACCUCCUUCCCAGUGUUGGUGUUCACUCACUAUAUGUCUUUAAGAAAAUUAAAACUAUGGAAAAUUGGAAUUCUCGGGUGCCAA | 0.488 |
| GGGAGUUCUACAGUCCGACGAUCAUUAUGUACAUCAAAGAUAUCCUAGAUGUAGAGACGAUGGUGUCUGGGAUAAAAGGCAGAGUUAGUUUCUCUCAUAGCAUAUAUUGGCAGAAAUGGUUCUGCAAGAUGCUUGGAAUUCUCGGGUGCCAA | 1.61 |
| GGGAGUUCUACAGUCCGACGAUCUUGUAAAACCAUCCCCUUCACCAGAAUGGUAUUAACUCCUGGUGCUUUGUACUACUGGUCCAGCUGCCUUGGGCUCCUUUUCUAUAUUAAUAAAGAAACGAGUAAAAAUUUGGAAUUCUCGGGUGCCAA | 0.538 |
| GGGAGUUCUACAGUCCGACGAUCGAGUUUAAAACAACAACCCCAACAACAGAAGCCUUGGCAAAGAGGAAUAAGUGAUCAGCAAGUGAACACACUCUAUGUCAACUCUCCUUUUAUCCAGCUGAGAUUUAUGGUGGAAUUCUCGGGUGCCAA | 0.619 |
| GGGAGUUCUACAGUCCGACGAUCACACAACAACAUCUGUACAAGCAUAUAUAUUUCAAAUCCAAGAUCUUGCCCUGUAACCCAUAUCUACUGUUCUGGCGACAAAAGACAGAUGUUAAGUGUAACAGAUAAUUUGGAAUUCUCGGGUGCCAA | 1.06 |
| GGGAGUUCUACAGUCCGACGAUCGCGAGCCUUCCACUCUCCCACGGUCUGGUGUCUCUAUGGAAAUAAAGUCUUAGUAUUGCAUUGGUGUAGAUUGUCUGUGAGAUAUUAGUAUGUGCUGUAUGCAGACCACAUGGAAUUCUCGGGUGCCAA | 4.02 |
| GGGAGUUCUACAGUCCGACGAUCAACAGUGUUGCUGUGACUUCAGAGACAAGCCUGGAAGGGGCACCUUAGGAAGCCCCUUCGCUUCAGUUGCUCGCUUCUGGGUGUGCUCCCUUCGAAGGCCCAGAUAAGACUGGAAUUCUCGGGUGCCAA | 0.257 |
| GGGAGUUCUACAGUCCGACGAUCAGACCAGGAGAGAAUUUGGGCCCUUACUGACCUGUCCUCCUUCAGGGACAUGAGCAUUCCCUAUAGAUUAGGGUUCUUCUUAUCCUCCUAUACAAAUUUCUUAAAUUGUUUGGAAUUCUCGGGUGCCAA | 0.415 |
| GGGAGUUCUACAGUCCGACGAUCGGUGGCAUGUGCCAGUAGUCCCAGCUACUCGAAAGGCUAAGACUGGAGGAUCGCUUGAGCCAAUGAGUUGGAGGCUGCAGUGAGCUAUAAUCACGCCACUGCACUCCAGCUGGAAUUCUCGGGUGCCAA | 0.544 |
| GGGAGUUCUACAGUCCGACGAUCUUGCACCCGCUCUCUGUUGUACACUUUCAAGCAACACUUUUUCAGACUAAAGGCCAAACAAAAGCUAUCGUGCUCAUAGUGUCCUGCUUUACUCUCCUACCCUGGCCCCAUGGAAUUCUCGGGUGCCAA | 0.446 |
| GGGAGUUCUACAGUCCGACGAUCGUACCAGUAGCCUCCCGUCCUAAUUCUGUUCAAUAUCAGUUGUUCCUAAUAAGUAGAAUACACUACUGUCAACACCUGACCUUCGUUUUUGUCUUGUGUUGGGGUUAGAGUGGAAUUCUCGGGUGCCAA | 0.548 |

Sample 4
Target: Sal-like protein 4, full length isoform B (SALL4, Homo sapiens, UniProt Q9UJQ4-2, residues 1-616)
Technique: universal PBM
Form: double-stranded DNA, one strand shown
Matrix: in vitro
Concentration: not given
Setting: 8-mer, flanks averaged, mean of replicates
Direction: higher = stronger binding
| Sequence | E-score |
| --- | --- |
| AACAAATG | 0.2 |
| GCGGTCAC | -0.288 |
| AAAAACAG | 0.112 |
| ATAGCCAT | 0.141 |
| GTCGGCAC | -0.126 |
| AGTAATTG | 0.1 |
| CTCCCGTA | -0.0818 |
| ACTTAAGG | 0.0447 |
| AGCCCACC | -0.298 |
| GCAGGTGA | -0.289 |
| CGTAGTAG | -0.0478 |
| ACGTAGTA | 0.0914 |
| CCAGATTC | -0.197 |
| ATTAAGTA | 0.333 |
| GAAGGAAC | -0.117 |
| CCTGTGCC | -0.189 |
| ACCTTGTG | -0.137 |
| ATGTCGAC | 0.13 |
| AATTGGGG | 0.0373 |
| ATTCGCGG | 0.0783 |
| AGATCCTC | -0.0852 |
| CTTACGCA | 0.0768 |
| ATTTAGCG | 0.117 |
| ATACGACG | 0.157 |
| CACACAAC | 0.105 |
